Assay results pooled from the literature.
Parts stem from different laboratories: compare values within a part only. Changes are numbered by the printed parent chain.

Set 1 — target: ATF1, bZIP domain (human); technique: DHFR protein complementation; sample: yeast; baseline: wild-type JUN-FOS pair; reading: higher = stronger binding
Setting: single substitutions, most at no-binding floor
Starting sequence: JUN, bZIP domain (human); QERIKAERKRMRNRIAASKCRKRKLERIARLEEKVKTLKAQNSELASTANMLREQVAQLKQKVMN; partner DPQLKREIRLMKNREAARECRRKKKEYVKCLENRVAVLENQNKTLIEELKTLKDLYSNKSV
Change	binding fitness
E32H	-1.45 natural log
R30W	-1.46 natural log
E54H	-1.53 natural log
N42F	-1.44 natural log
E54W	-1.53 natural log
V56H	-1.53 natural log
E33H	-1.56 natural log
L52T	-1.55 natural log
L38K	-1.48 natural log
V35S	-1.52 natural log
E54N	-1.5 natural log
A40L	-1.49 natural log
E33P	-1.52 natural log
A46R	-1.48 natural log
S43I	-1.44 natural log
N42H	-1.5 natural log

Set 2 — target: CCND3, cyclin fold, Cln2 fusion (human); technique: yeast growth competition, sequencing; sample: yeast; setting: weak parent motif; baseline: not given; reading: higher = stronger binding
Starting sequence: USP37 docking peptide (human); PSAKRSLGFLPQP
Change	normalised enrichment score
PSAKRALGFLPQP [S6A]	0.412
PSAKRSLGFLPAP [Q12A]	0.529
PSAKASLGFLPQP [R5A]	0.0587
PSAKRSLGFLPQA [P13A]	0.305
PSAKRSLGALPQP [F9A]	-0.108
ASAKRSLGFLPQP [P1A]	-0.000533

Set 3 — technique: protein-binding microarray; form: double-stranded DNA, one strand shown; sample: in vitro; tested at: 2200 nM top; setting: 60-bp whole probe; together with: salmon DNA 0.4 mg/ml; baseline: random background probes; reading: higher = stronger binding; shared flanks, not repeated: GCCTAGCAC … GTCTTGATTCGCTTGACGCTGCTG
Target: Interferon regulatory factor 7, full length, phosphomimetic (IRF7, Homo sapiens, UniProt Q92985, residues 1-503, S471D/S472D/S475D/S476D/S477D/S483D/S484D/S487D)
Target sequence (chain): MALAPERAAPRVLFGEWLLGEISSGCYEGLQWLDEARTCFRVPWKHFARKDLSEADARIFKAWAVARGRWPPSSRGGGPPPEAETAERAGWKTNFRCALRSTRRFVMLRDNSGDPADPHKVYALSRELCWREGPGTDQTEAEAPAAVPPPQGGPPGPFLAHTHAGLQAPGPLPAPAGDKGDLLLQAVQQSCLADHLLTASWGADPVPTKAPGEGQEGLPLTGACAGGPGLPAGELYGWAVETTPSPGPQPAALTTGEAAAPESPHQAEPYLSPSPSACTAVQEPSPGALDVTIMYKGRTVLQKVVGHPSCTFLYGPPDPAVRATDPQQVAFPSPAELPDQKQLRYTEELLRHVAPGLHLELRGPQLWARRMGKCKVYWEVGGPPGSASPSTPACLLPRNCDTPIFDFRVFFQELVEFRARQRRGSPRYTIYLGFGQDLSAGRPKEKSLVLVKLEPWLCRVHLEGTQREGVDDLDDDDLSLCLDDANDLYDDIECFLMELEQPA
Oligonucleotide	fitted relative affinity
GACGGTGTCCTACTGCTGACGTGCTAG	-0.000908 z-score
TTAGGTTTAGACTTTCGGTTAGTGCTA	4.99 z-score
TTAGGACTGGGTATCTGTTAGTGCTAG	-0.25 z-score
TTGGGTATCGGTTTCGGTTAGTGCTAG	6.86 z-score
GACGAACTCAGACTGGAGACGTGCTAG	-0.147 z-score
TTAGGTATCCTGATCCTTTAGTGCTAG	0.392 z-score
TTCTGATCCATTTTGGTTTTGTGCTAG	1.64 z-score
TTAGGACTGCTTCTCCTGTAGTGCTAG	0.527 z-score
TCATCCATGCTCTGTCGCACTGTGCTA	1.19 z-score
GACGGACTGGGGTATCGGGATGTGCTA	-0.72 z-score
AGCTATCACTATTCTAGGGAAGTGCTA	-0.652 z-score
TTAGGTATCCTTTTCCTTCAGTGCTAG	1.62 z-score
TTAGGACTGGTCTTTCGGTTAGTGCTA	2.39 z-score
ATGATTGGTTGAACATGAACGTGCTAG	0.52 z-score
TTAGGTATCGGGACAGGGTTAGTGCTA	0.0361 z-score
TGAGGTCTCCTACTGCTTTAGTGCTAG	0.213 z-score
TTAGAATTCAGTTTCGATTAGTGCTAG	6.24 z-score
GACGATTTCAGTCTCGACACGTGCTAG	0.888 z-score
TTAGGTCTCCTTTGCCTTTAGTGCTAG	0.771 z-score

Set 4 — technique: RNA Bind-n-Seq; form: RNA; sample: in vitro; tested at: 365 nM; baseline: no-protein control; reading: higher = stronger binding
Target: RNA binding protein fox-1 homolog 2, RRM domain, GST-SBP tag (RBFOX2, Homo sapiens, UniProt O43251-10, residues 100-194)
Setting: natural RNA segment, single round, ends assumed
Shared flanks, not repeated: GGGAGUUCUACAGUCCGACGAUC … UGGAAUUCUCGGGUGCCAA
Residues (chain): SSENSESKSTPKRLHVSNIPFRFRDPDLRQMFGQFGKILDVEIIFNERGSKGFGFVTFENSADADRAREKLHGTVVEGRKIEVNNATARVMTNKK
Oligonucleotide	RBNS enrichment (R)
GCCUGUGGCCCCUCACAUUCUCCAGGACCUGCCCUGCUAUGGGCCACUAACUGCUUGCUGGGGACAGGCAAACCCGGACUGUGCAAAGUUACUAGCCCGUAGCUCUUGGG	0.298
CCAAGAAGUUUUUUGGGCAAAAAUCUUGGAUCAUUUUUAUGUAGCAUGAUUUUCCUUGGGAUGCAAAUCUGAAACAGUCCUUUAACAUGAACAAUCUGCAGCACACUGAA	0.98
ACCCAGGACCACAGUGACACACGAAAGGAAACAGGCUAGGUGGUGAACCCUCCAAUUCAGGAAGUGGGAAAAGGAGCCAGGAAAUGUGCUUCUACUUUGCCAGUUAUUUC	0.525
GGGGGAUUGUGGUGAGUGAGAAUCAAGGCCACCUUGUGUGUUUUCUCACUCUCGAAUGCAAGUGGGAGAGGGAAAAUGACUCGGGACGCCAUUGUAACGGUUCCUGGAAG	4.9
CAACAUAGAGUUUAAGUAUCCAGUAGUGAUUUGUAAACUUGUUUUUCAUUUGAAGCUGAAUAUAUACGUAGUCAUGUUUAUGUUGAGAACUAAGGAUAUUCUUUAGCAAG	0.602
AUUUUUCCAUAAAAUAGUUGUGAUUAUAUUUUUGUUUUAUAUAGGUCCCAAAUUAUAAUUGUCAAAUAUAUAUUUUAAAUUAAUAAAAGUUGUCAUUCUUAGGAAUUUGG	1.38
UCUAUCUAUUUAAUUGGAUAUUGGACUCUGCUCAUAUAAGCUACAGACAAAAGCCAAAAGACUCUCGCUGUCCCUGUGCUGCUGGUAUUUCAUUCUCUGUAACUUCAGUU	0.385
UCUGACCUUCUCAUCAAGAGAGCUGGGGUGCUUUGAAGAUAAUCCCUACCCCUCUCCCCCAAAUGCAGCUGAAGCAUUUUACAGUGGUUUGCCAUUAGGGUAUUCAUUCA	0.36

Set 5 — technique: protein binding microarray; form: double-stranded DNA, one strand shown; sample: in vitro; tested at: not given; baseline: not given; reading: higher = stronger binding
Target: Histone acetyltransferase KAT6A, winged helix 2, GST fusion (KAT6A, Homo sapiens, UniProt Q92794, residues 85-181)
Setting: 8-mer, flanks averaged, mean of 2 arrays, mostly near background
Residues (chain): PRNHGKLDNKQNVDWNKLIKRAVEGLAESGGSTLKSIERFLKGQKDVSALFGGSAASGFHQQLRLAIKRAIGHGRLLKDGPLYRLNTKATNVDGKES
Oligonucleotide	E-score
AATTATCG	0.185
CGTGACCC	0.0591
CACATTTA	-0.0866
AGCTTCGG	0.00869
ACTTATAA	0.108
AGCGTTGG	-0.0849
AGACAACG	-0.0796
GGATCCCC	0.000225
ACCCTGGA	-0.1
CGCGCCAG	0.253
CTGAAAAC	0.0207
ACGTTGCT	0.0989
GAGGACCC	-0.114
CGGGTTAG	-0.186
CGTATATC	-0.0443
ACATGTCG	-0.247

Repeated from above (set 1):
Change	binding fitness
L52T	-1.55 natural log
L38K	-1.48 natural log
V35S	-1.52 natural log
E54N	-1.5 natural log
A40L	-1.49 natural log
E33P	-1.52 natural log
A46R	-1.48 natural log
S43I	-1.44 natural log
N42H	-1.5 natural log
